Results of several laboratories.
Parts stem from different laboratories: compare values within a part only. Positions count from the first letter of the parent shown.

Sample 1
Target: CREB3, bZIP domain (human)
Technique: DHFR protein complementation
Sample: yeast
Notes: single substitutions, most at no-binding floor
Reference: wild-type JUN-FOS pair
Reading: higher = stronger binding
Measurement: binding fitness
Starting sequence: JUN, bZIP domain (human); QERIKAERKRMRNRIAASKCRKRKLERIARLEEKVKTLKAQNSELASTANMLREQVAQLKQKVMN; partner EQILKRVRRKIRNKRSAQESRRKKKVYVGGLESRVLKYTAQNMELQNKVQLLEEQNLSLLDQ
S47P: -1.48 natural log
L52S: -1.39 natural log
S43N: -1.4 natural log
A40K: -1.49 natural log
L45R: -1.52 natural log
R53T: -1.39 natural log
Q55W: -1.46 natural log
K34R: -1.48 natural log
A40N: -1.13 natural log
R30M: -1.5 natural log
Q41D: -1.34 natural log
K36S: -1.29 natural log

Sample 2
Target: Prothrombin, mature alpha-thrombin (F2, Homo sapiens, UniProt P00734)
Technique: aptamer microarray, sandwich
Molecule type: DNA with 2'F-ANA
Sample: in vitro
Tested at: 200 nM
Notes: whole 15-mer aptamer, many near background
With: Cy3 exosite-II aptamer, 400 nM
Reading: higher = stronger binding
Measurement: mean fluorescence intensity
Sequence: GGTTGGTGTGGTTGG
2'F-ANA at 4 5 7 8 12 15: 162 a.u.
2'F-ANA at 1 2 3 4 5 7 8 10 11 12 13 14: 49.7 a.u.
2'F-ANA at 4 7 9 11 13 15: 166 a.u.
2'F-ANA at 2 3 4 8 11 12: 869 a.u.
2'F-ANA at 1 2 3 5 7 8 9 10 12 13: 49.8 a.u.
2'F-ANA at 1 3 8: 394 a.u.
2'F-ANA at 3 5 7 8 9 12 14 15: 75 a.u.
2'F-ANA at 1 2 4 6 8 9 11 14 15: 163 a.u.
2'F-ANA at 1 2 3 6 8 10 11 12 15: 80.2 a.u.
2'F-ANA at 1 2 3 4 5 6 7 8 12 13 14: 58 a.u.

Sample 3
Target: Histone acetyltransferase KAT6A, both winged helices, GST fusion (KAT6A, Homo sapiens, UniProt Q92794, residues 1-181)
Technique: protein binding microarray
Molecule type: double-stranded DNA, one strand shown
Sample: in vitro
Tested at: not given
Notes: 8-mer, flanks averaged, mean of 2 arrays, mostly near background
Reference: not given
Reading: higher = stronger binding
Measurement: E-score
Construct (chain): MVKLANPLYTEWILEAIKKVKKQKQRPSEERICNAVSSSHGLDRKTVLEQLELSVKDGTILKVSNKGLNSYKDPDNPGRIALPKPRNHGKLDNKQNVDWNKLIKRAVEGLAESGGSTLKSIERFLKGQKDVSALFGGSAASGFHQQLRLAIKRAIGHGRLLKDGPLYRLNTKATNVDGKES
CTTGGGGC: -0.00617
GAATGATC: -0.00658
ATCTGTTA: -0.0785
TACCTCCA: -0.221
CTAATCTA: -0.105
CACTGGGG: -0.133
AAGCGCGG: 0.357
CAACGAAG: -0.077
GCAATCCA: 0.0637
CGGTCACC: 0.118
AGGATCAT: -0.189

Further values, each from its own experiment
PhoQ, residues 284 288 289 292 302 303 SLKLQV
fold induction (PhoP, residues 12 14 15 18 19 LWHVM (Escherichia coli, UniProt P23836); Sort-seq, measured: YFP reporter; E. coli; PhoQ-PhoP variant library, with: 10 µM Mg2+; reference: high Mg2+ state, higher = stronger signaling): 8.2
